# Assay results collected from several papers.
# Several values in a cell are separate wells, animals, samples, runs or records. ± marks the error that the study gave.
# Organism: HIV-1
SMILES,assay,test system,conditions,endpoint,value
Cc1cc(/C=C/C#N)cc(C)c1-n1cnc2cnc(Nc3ccc(C#N)cc3)nc21,"viral replication, single-round infection",RT mutant E138K/M184I,,EC50,0.9 ± 0.6 nM
COc1ccc(S(=O)(=O)O)cc1N=Nc1c(S(=O)(=O)O)cc2cc(NCc3nc(CNc4cc(C)c(N=Nc5cc(S(=O)(=O)O)cc6cc(S(=O)(=O)O)cc(O)c56)cc4OC)nc(Nc4ccccc4)n3)ccc2c1O,pseudovirus infection,SF162 K35A,,IC50,1460 ± 450 nM
NC(=O)C[C@@H]1NC(=O)[C@H](Cc2ccc(OS(=O)(=O)O)cc2)NC(=O)c2cccc(c2)CNC(=O)[C@H](Cc2ccc(OS(=O)(=O)O)cc2)NC(=O)[C@H](CC(=O)O)NC1=O,viral entry,"NP2.CD4.CCR5, TA1 engineered Env pseudotype",,IC50,159000 ± 30000 nM
Cc1cc(/C=C/C#N)cc(C)c1Nc1nc(Nc2ccc(C#N)cc2)ncc1N,"viral replication, single-round infection",RT mutant H221Y,,EC50,0.9 ± 0.1 nM
COc1ccnc(Nc2ccc(C#N)cc2OCC=C(C)C)n1,MTT,"MT-2, RT Y181C mutant",concentration not given,antiviral activity,inactive
Cc1cc(C)cc(S(=O)(=O)c2c(C(=O)NC3CC4(C3)CN(Cc3n[nH]c(=O)[nH]3)C4)[nH]c3ccc(Cl)cc23)c1,viral replication,"MT-4, F227L/V106A mutant",,EC50,230 ± 70 nM
Cc1cc(/C=C/C#N)cc(C)c1Oc1nc(NC2CCN(Cc3ccc(S(C)(=O)=O)cc3)CC2)nc2ncccc12,in vitro resistance selection,"MT4, IIIB",39 passages,concentration at resistance emergence,5.3 µM
CC(C)N1CCn2cc(C(=O)NCc3ccc(F)cc3F)c(=O)c(O)c2C1=O,"viral replication, single-round vector infection",IN L74M/G140C/Q148R,,EC50,102 ± 5.5 nM
Cc1cc(C)cc(S(=O)(=O)c2c(C(N)=O)[nH]c3ccc(Cl)cc23)c1,viral replication,"MT-4, F227L/V106A mutant",,EC50,47 ± 23 nM
O=C(NCc1ccc(F)cc1F)c1cc2cccnc2n(O)c1=O,viral replication,"infected cells, integrase N155H mutant",,EC50,134 ± 23 nM
COc1ccc2c(c1)OCCCC=CCCCCN(CC(O)C(Cc1ccccc1)NC(=O)OC1COC3OCCC13)S2(=O)=O (mixture of isomers),viral replication,"PHA-stimulated PBMCs, HIV-1MDR/TM X4 multidrug-resistant",,IC50,72 ± 14 nM
Cc1nc([C@H](NC(=O)c2ccc(-c3ccc(Cl)cc3)[nH]2)[C@@H]2CCCCN2)sc1CO,viral replication,"MT-2, IIIB",,IC50,850 nM and ≥ 800 nM
CC(C)n1ccn2cc(C(=O)NCc3ccc(F)cc3F)c(=O)c(O)c2c1=O,"viral replication, single-round vector infection",IN E138K/G140A/Q148K,,EC50,381 ± 20.3 nM
